Measurements pooled from the literature.
“And” joins repeats or separate records; there may be more than shown. ± marks the error that the study gave.

| Compound | test | system | setting | scale | quantity | result |
| --- | --- | --- | --- | --- | --- | --- |
| COCC1CN(C2CCN(c3cc(OC)c(Nc4ncc(Br)c(Nc5ccc6c(c5P(C)(C)=O)OCCO6)n4)cc3C)CC2)C1 | phase 1 trial | human, advanced EGFR-mutant NSCLC | oral, dose not given | – | patients with any treatment-related AE | 81.5% |
| CCCCN1C(=O)c2cccc3c(NCCCCCN4CCOCC4)ccc(c23)C1=O | – | dioxane | – | – | fluorescence lifetime | 10.1 ns |
| C#CCOCCOCCOCCOCCn1cc(C(ONC(=O)/C=C/C(C)=C/C2(C)Oc3cc(N(C)C)ccc3C2=O)(c2ccc(C)cc2)c2ccc(C)cc2)nn1 (stereo not shown) | HPLC | aqueous buffer, 20% acetonitrile | concentration not given, 164 min, pH 3 | reference: initial prodrug amount | release from prodrug hydrolysis | 58% |
| C/C(N)=N/C(=N\S(=O)(=O)c1ccc(C(F)(F)F)cc1)N1C[C@H](c2ccccc2)C(c2ccc(Cl)cc2)=N1 | – | male C57BL/6 mouse, lung | intravenous, 5 mg/kg | – | half-life | 2.7 h |
| C=CC(=O)N1CCCC(n2c(=O)c3ncccc3n(Cc3ccc(Oc4ccccc4)cc3)c2=O)C1 (stereo not shown) | – | male BALB/c mouse, plasma | intraperitoneal, 200 mg/kg, 1 h | – | concentration | 92600 ng/mL |
| Cc1noc(C)c1Cn1cc(N2C(=O)CN(Cc3cccc(O[C@@H]4O[C@H](C(=O)O)[C@@H](O)[C@H](O)[C@H]4O)c3)C2=O)cn1 | – | Sprague-Dawley rat, male | oral, 30 mg/kg of parent drug, 2 h | – | plasma concentration | 4750 ng/mL |
| O=C(Nc1cnccc1-c1ccc([18F])nc1)c1ccnc(NC(=O)C2CC2)c1 | – | FVB/NJ mice (both sexes), thalamus | intravenous, dose not given, 120 min | – | SUV | 0.025 |
| Cc1nc(N)nc2c1C(=O)N[C@@H](c1ccc(F)cc1-c1cccc(O[11CH3])n1)C2 | ex vivo biodistribution | mouse, U87 subcutaneous xenograft, carcass | dose not given, 60 min, vehicle pretreatment baseline | – | radioactivity uptake | 44.2 ± 3.8 %ID |
| CCCCN1C(=O)c2cccc3c(NCCCCN4CCOCC4)ccc(c23)C1=O | – | ethyl acetate | – | – | fluorescence lifetime | 9.6 ns |
| Cc1nn(-c2nc3c(F)cc(F)cc3s2)c(O)c1C(c1ccc(C(F)(F)F)cc1)c1c(C)nn(-c2nc3c(F)cc(F)cc3s2)c1O | – | ICR mouse, plasma | intraperitoneal, 10 mg/kg | – | Clast | 313 ng/mL and 150 ng/mL and 329 ng/mL |
| Nc1nc2cnc(C(=O)N3CCOC[C@@H]3c3ccc(C(F)(F)F)cc3)cc2c2c1COC2 | – | mouse, plasma | – | – | fraction unbound | 0.071 |
| CC(C)c1cc(C(=O)NCCN(C)C)c2cnn(C(C)C)c2n1 | metabolic stability | mouse, liver microsomes | – | – | scaled CLint | 457 mL/min/kg |
| CC(C)(O)c1ncc([S@](N)(=O)=NC(=O)Nc2c3c(cc4c2CCC4)CCC3)s1 | refers to: Psychiatric disorders | healthy human volunteers | oral, dose not given, 14 days, multiple dose, all active arms | – | subjects with adverse events | 8% |
| O=C(O)CN1CCN(CC(=O)O)CCN(CC(O)CN(CC(O)CN2CCN(CC(=O)O)CCN(CC(=O)O)CCN(CC(=O)O)CC2)C[C@H](O)[C@@H](O)[C@H](O)[C@H](O)CO)CCN(CC(=O)O)CC1 (stereo partly shown) | pH-potentiometry, refers to: Gd2(HL), glucamine N protonation | – | 25 °C, 0.15 M NaCl | – | log K | 2.99 |
| CCC1CNC(CC)CN(C(C(=O)[O-])c2ccc(C(=O)[O-])cc2)C(CC)CN(CC(=O)[O-])C(CC)CN1.[Mn+2] (stereo not shown) | ICP-MS | BALB/c mice, liver | intravenous, 0.05 mmol/kg, 1440 min | reference: injected dose | Mn uptake | 3.53 ± 0.64% |
| COc1ccc2c(c1)CCn1c[n+]3c(c1-2)-c1ccc(OC)cc1CC3 | – | female NSG mice, blood | 6 mg/kg, day 7, 5 days per week | – | Eosinophils | 11.6 ± 9.17% |
| CN1CCC[C@]1(C)/C=C/S(=O)(=O)NC(=O)Nc1c2c(cc3c1CCC3O)CCC2 (stereo partly shown) | – | human, plasma | oral, 50 mg twice daily of parent drug, day 14, metabolite of dosed drug | – | Cmax at first steady-state dose | 38000 ng/mL |

| Compound | test | system | setting | scale | quantity | result |
| --- | --- | --- | --- | --- | --- | --- |
| CNc1cc(C)c(C(N)=O)cn1 | – | Han Wistar rats, male, plasma | oral, 30 mg/kg, 1.00 h | – | concentration at time | 83.5 µM |
| CN1CCCNC(=O)c2cccc(c2)C(=O)NCCCN(C)CCCNc2cccc3c2C(=O)c2cccc(c2C3=O)NCCC1 | – | mouse xenograft model | dose not given, day 0 | – | body weight | 25 g and 26 g and 24 g |
| O=C(NS(=O)(=O)c1cccs1)c1cc2ccccc2n1Cc1ccc(Br)c2ccccc12 | – | Sprague-Dawley rat, male | intravenous, dose not given, 0.083 h | – | plasma concentration | 6000 ng/mL |
| COc1ccnc(C(=O)N[C@H]2COC(=O)[C@H](Cc3ccccc3)[C@@H](OC(=O)C(C)C)[C@H](C)OC2=O)c1O | soil adsorption | tested soils | geometric mean | – | KFoc | 4520 mL/g |
| C[C@H](C(=O)O)c1ccc(-c2ccccc2)c(F)c1 | HPLC | sample solution | concentration not given, 12 h, room temperature, solution stability | – | peak area change, RE | 0.48% |
| O=C(CCc1ccc(CNC(C(=O)O)C2CCCCC2)cn1)NO (stereo not shown) | – | healthy male humans, plasma | oral, 20 mg, single dose | reference: fed over fasted | Cmax ratio | 0.73 |
| C=CC(=O)Nc1cc(Nc2nccc(-c3c[nH]c4ccccc34)n2)c(OC)cc1N(C)CCN(C)C | storage stability | human dried blood spot | 30 d, -80 °C, LQC level | – | recovery | 101% |
| Nc1nnc(NCc2c(Cl)cccc2Oc2ccccc2)[nH]1 | – | CD1 mice | ip, 3 mg/kg daily, 1 weeks | reference: normal mice | blood urea nitrogen | increased |
| C=C[C@]1(C)C[C@@H](OC(=O)CSc2ccc(NC(=O)c3ccco3)cc2)[C@]2(C)[C@H](C)CC[C@]3(CCC(=O)[C@H]32)[C@@H](C)[C@@H]1O | – | Mycoplasma gallisepticum-infected chickens, plasma | intramuscular, 80 mg/kg, 1 h | – | plasma concentration | 6100 ng/mL and 7560 ng/mL and 6940 ng/mL and 5140 ng/mL and 10200 ng/mL and 9280 ng/mL and 9760 ng/mL and 6390 ng/mL |
| CN1CCC[C@]1(C)/C=C/S(=O)(=O)NC(=O)Nc1c2c(cc3c1CC(O)C3)CCC2 (stereo partly shown) | – | human, plasma | oral, 50 mg twice daily of parent drug, day 14, metabolite of dosed drug | – | Cmax at first steady-state dose | 5600 ng/mL |
| C=C(NC(=O)c1csc(-c2nc3c(cc2O)-c2nc(cs2)C(=O)NC(C(C)O)C(=O)NC(=C(C)OC)c2nc(cs2)C(=O)NC2c4nc(cs4)C(=O)NC(COC(=O)c4c5c6c(cccc6n4O)COC(=O)C(OC4CC(C)(O)C(N(C)C)C(C)O4)C2OC5)c2nc-3cs2)n1)C(N)=O (stereo not shown) | – | Sprague-Dawley rat, female, plasma | intravenous infusion, 6 mg/kg, multiple doses, day 1 | – | Tmax | 4.8 min |
| CN(C)S(=O)(=O)c1ccc(S(=O)(=O)N2CCC(n3c(=O)[nH]c4ccccc43)CC2)cc1 | – | mouse | dose not given, day 6 | reference: day 0 | relative body weight | 100% and 106% |
| COc1cnc2cccc(N3CCc4c(cc(Cn5ccnc5)cc4-c4cn(C)nc4C(F)(F)F)C3=O)c2c1 | – | male CD-1 mouse, plasma | oral, 10 mg/kg | – | AUC(0-t) | 3820 ng·h/mL |
| O=C(O)C(Cc1c[nH]cn1)N1C(=O)c2ccc3c4ccc5c6c(ccc(c7ccc(c2c37)C1=O)c64)C(=O)N(CCN1CCCCC1)C5=O (stereo not shown) | shake flask | aqueous buffer | pH 8 | – | logD | 2.25 |
| O=C(Nc1cnccc1-c1ccc([18F])cc1)c1ccnc(NC(=O)C2CC2)c1 | ex vivo gamma counting | FVB/NJ mice, both sexes, adipose tissue | intravenous, 120 min, together with: tariquidar 15 mg/kg iv | – | mean SUV | 0.33 |
| Oc1cccc(-c2cccc(O)n2)n1.[Cl-].[Cl-].[Ru+2].c1ccc(-c2ccnc3c2ccc2c(-c4ccccc4)ccnc23)cc1.c1ccc(-c2ccnc3c2ccc2c(-c4ccccc4)ccnc23)cc1 | – | acetonitrile | basic deprotonated form | – | singlet oxygen quantum yield | < 0.01 |
| CN(O)C(=O)CCC(=O)NCCCN(CCCCN(CCCNC(=O)CCC(=O)N(C)O)C(=O)CCC(=O)N(C)O)C(=O)CCC(=O)N(C)O.[89Zr] | – | mouse, heart | 24 h | – | tracer uptake | 0.01 %ID/g |

Some of these lines once more:
| Compound | test | system | setting | scale | quantity | result |
| --- | --- | --- | --- | --- | --- | --- |
| COc1ccc2c(c1)CCn1c[n+]3c(c1-2)-c1ccc(OC)cc1CC3 | – | female NSG mice, blood | 6 mg/kg, day 7, 5 days per week | – | Eosinophils | 11.6 ± 9.17% |
| CN1CCC[C@]1(C)/C=C/S(=O)(=O)NC(=O)Nc1c2c(cc3c1CCC3O)CCC2 (stereo partly shown) | – | human, plasma | oral, 50 mg twice daily of parent drug, day 14, metabolite of dosed drug | – | Cmax at first steady-state dose | 38000 ng/mL |
| CNc1cc(C)c(C(N)=O)cn1 | – | Han Wistar rats, male, plasma | oral, 30 mg/kg, 1.00 h | – | concentration at time | 83.5 µM |
